Published values gathered from unrelated publications.
Lines come from different studies, so protocols differ. Numbers after ± are the reported error.

Cn1c(-c2ccc(C(N)=O)cc2F)nnc1C(C)(C)Oc1c(F)cc(Cl)cc1F
AUC(0-tau) median (healthy young Japanese subjects, plasma; oral, 20 mg once daily, day 18, 14 days dosing): 2470 ng·h/mL

CS(=O)(=O)n1cc2c(n1)CN([C@H]1CO[C@H](c3cc(F)ccc3F)[C@@H](N)C1)C2
Ctrough (healthy Japanese men, plasma; oral, 50 mg once weekly, day 1): 27.1 nM

Nc1nc2ncc(CNc3ccc(C(=O)N[C@@H](CCC(=O)O)C(=O)O)cc3)nc2c(=O)[nH]1
EC20 (mitochondrial swelling; BALB/cByJ female mouse liver mitochondria; 30 min, added: succinate + rotenone; relative to: CaCl2 maximal swelling): > 800 µM

Cc1cc(-c2cc(OC(=O)c3ccccc3)ccc2Cl)cc2nnc(Nc3ccc(OCCN4CCCC4)cc3)nc12
Tmax (C57BL/6 mouse, sclera/choroid; topical, 1%): 1 h

O=C(Cc1cccc(OC(F)(F)F)c1)Nc1ccc(CCCCc2nnc(NC(=O)Cc3ccccn3)s2)nn1
AUC(0-8h) (human patients, plasma; oral, 250 mg three times daily fasted, cycle 1 day 15 steady state): 4630 ng·h/mL

NC12CC3CC(CC(C3)C1)C2
EC20 (cytochrome c release, ELISA; BALB/cByJ female mouse liver mitochondria; 30 min; relative to: alamethicin maximal release): > 400 µM

CC[C@H](C)[C@H](NC(=O)[C@H](C)NC(=O)[C@H](CCC(=O)O)NC(=O)[C@H](CCCCNC(=O)c1ccc2c(c1)C1(OC2=O)c2ccc(O)cc2Oc2cc(O)ccc21)NC(=O)CCOCCOCCOCCNC(=O)CCOCCOCCOCCNC(=O)[C@H](CCCNC(=N)N)NC(=O)CNC(=O)[C@H]1CCCN1C(=O)[C@@H](N)Cc1c[nH]c2ccccc12)C(=O)N[C@@H](Cc1ccc(O)cc1)C(=O)N[C@@H](C)C(=O)N[C@@H](C)C(=O)N1CCC[C@H]1C(=O)N[C@@H](Cc1ccccc1)C(=O)N[C@@H](C)C(=O)N[C@@H](CCCCN)C(=O)N[C@@H](CCCCN)C(=O)N[C@@H](CCCCN)C(N)=O
initial degradation rate (Baf/BCR-ABL cell lysate; 2 µM, 37 °C): 2.2 pmol/mg/s

C1CCC(C(CC2CCCCN2)C2CCCCC2)CC1 (stereo not shown)
EC20 (mitochondrial swelling; BALB/cByJ female mouse liver mitochondria; 30 min, added: succinate + rotenone; relative to: CaCl2 maximal swelling): 14.8 µM

O=C(c1cccnc1-c1ccncc1)N1CCC(O)(Cc2ccccc2)CC1
AUCinf (healthy human, plasma; oral, 400 mg once daily, day 14, arithmetic mean): 3090 ng·h/mL

CC(CC(=O)O)C(=O)O (stereo not shown)
free concentration ratio (human hemodialysis patients, plasma ultrafiltrate; pre-treatment; relative to: hemodialysis over normal subjects): 91

O=C(O)c1cccc(O)c1
mean concentration (human, fasted baseline, cerebrospinal fluid): 367 ± 292 nM

CC[C@H](C)[C@H](NC(=O)[C@H](CCCCN)NC(=O)[C@@H](NC(=O)[C@H](CC(N)=O)NC(=O)[C@H](C)NC(=O)[C@H](CCCNC(=N)N)NC(=O)[C@H](CCCNC(=N)N)NC(=O)[C@H](CC(N)=O)NC(=O)[C@H](CCCNC(=N)N)NC(=O)[C@H](CCCNC(=N)N)NC(=O)[C@H](C)NC(=O)[C@@H](NC(=O)[C@H](CO)NC(=O)[C@@H](NC(=O)[C@@H](NC(=O)[C@H](CS)NC(=O)[C@H](CCCCN)NC(=O)[C@@H](N)CCCNC(=N)N)C(C)C)[C@@H](C)CC)C(C)C)[C@@H](C)CC)C(=O)N[C@@H](CC(C)C)C(=O)N[C@@H](CS)C(=O)N[C@@H](CC(N)=O)C(=O)O
single disulfide form (LC-MS; PBS; 0.1 mg/mL): 29%

C[C@]12CC[C@@H]3c4ccc(O)cc4CC[C@H]3[C@@H]1C[C@@H](O)[C@@H]2O
maximum serum concentration (GC-MS; breast cancer women on NSAI, serum; vaginal, 0.03 mg, 24 h, day 0): 0 ng/mL

CCN1C(=O)CNc2ncc(-c3ccc(-c4nc[nH]n4)nc3C)nc21
AUC(0-24h) (human, plasma; oral, 25 mg once daily, multiple doses): 1570 ng·h/mL

CC(=O)N[C@H](CSSC[C@H](N)C(=O)O)C(=O)N[C@H](C)C(=O)N[C@H](CCCNC(=N)N)C(=O)N[C@H](CCCNC(=N)N)C(=O)N[C@H](CCCNC(=N)N)C(=O)N[C@H](C)C(=O)N[C@H](CCCNC(=N)N)C(N)=O
SAPC conjugation rate constant (human whole blood; 5 µM, 37 °C, added: SAPC 2.5 µM): 0.007 min⁻¹

N#Cc1ccc(OCC2=C(C(F)F)C(=O)c3ccccc3C2=O)cc1
cathodic peak potential (cyclic voltammetry; DMSO; first wave, vs Ag/AgCl): -0.414 V

For quick reference, copied from above:
O=C(c1cccnc1-c1ccncc1)N1CCC(O)(Cc2ccccc2)CC1
AUCinf (healthy human, plasma; oral, 400 mg once daily, day 14, arithmetic mean): 3090 ng·h/mL
